Experimental data from different studies.
Each line is one published result; not all experiments were run side by side. Numbers after ± are the reported error.
CPL: CPL (Toxoplasma gondii, UniProt Q6DMN0)

SMILES = CC(=O)N[C@H](CCCNC(=N)N)C(=O)N[C@H]1CSSC[C@@H](C(N)=O)NC(=O)[C@H](Cc2c[nH]c3ccccc23)NC(=O)[C@H](CCCNC(=N)N)NC(=O)[C@@H](Cc2ccccc2)NC(=O)[C@H](Cc2c[nH]cn2)NC(=O)[C@H](CCC(=O)O)NC1=O; target = Melanocortin receptor 4 (Mus musculus, UniProt P56450); assay = agonist; system = mice; setting = intraperitoneal, 3 mg/kg; how to read = reference: saline; endpoint = plasma PYY level; result = 3 fold
SMILES = N#Cc1nc(N2CCOCC2)nc(N(Cc2ccc(F)cc2)CC2CCOCC2)n1; target = CPL; assay = enzyme activity, inhibitor; how to read = reference: human over Toxoplasma IC50; endpoint = selectivity ratio; result = 0.25
SMILES = CC(=O)N[C@@H](CC(C)C)C(=O)N[C@@H](CCC(=O)O)C(=O)N[C@@H](Cc1c[nH]cn1)C(=O)N[C@@H](CC(=O)O)C(=O)Nc1ccc2c(C)cc(=O)oc2c1; target = Caspase-9 (CASP9, Homo sapiens, UniProt P55211); assay = substrate; setting = concentration not given, full-length; endpoint = Vmax; result = 139 ± 8.11 RFU/min
SMILES = CC(=O)NC(Cc1ccc(Br)c(Cl)c1)C(=O)N[C@@H](C)C(=O)N1CCC[C@H]1C(=O)N1CCC[C@H]1C(=O)N[C@@H](CCC(=O)O)C(=O)N[C@@H](Cc1c[nH]cn1)C(=O)N[C@@H](CO)C(=O)N[C@H](C(=O)N[C@@H](C)C(N)=O)[C@@H](C)OP(=O)(O)O (some centres unmarked); target = ROCK1 (Homo sapiens, UniProt Q13464); assay = enzyme activity, inhibitor; setting = 10 µM; endpoint = inhibition; result = 5.54%
SMILES = C=C(F)C(=O)N1CCN(c2nc(OC[C@@H]3CCCN3CCCOCCC(=O)N[C@H](C(=O)N3C[C@@H](O)C[C@H]3C(=O)NCc3ccc(-c4scnc4C)cc3)C(C)(C)C)nc3c2CCN(c2cccc4cccc(Cl)c24)C3)C[C@@H]1CC#N; target = GTPase KRas (KRAS, Homo sapiens, UniProt P01116, G12C); assay = immunoblot band shift; system = NCI-H2030; setting = 2.5 µM; endpoint = time to target engagement; result = ≤ 1 h
SMILES = CCCCCCn1c2ccccc2c2cc(C(=O)c3cccc4ccccc34)ccc21; target = CNR1 (Homo sapiens, UniProt P21554); assay = GTPγS binding, agonist; setting = cell membranes; endpoint = Emax; result = 82.2%
SMILES = N[C@@H](Cc1ccccc1)P(=O)(O)O; target = PAL1 (Petroselinum crispum, UniProt P24481, Y110F); assay = isothermal titration calorimetry; setting = concentration not given; how to read = reference: wild type minus Y110F; endpoint = ΔΔG binding; result = -0.7 kcal/mol
SMILES = NCCCCCO[C@H]1O[C@H](CO[C@H]2O[C@H](CO[C@H]3O[C@H](CO)[C@@H](O)[C@H](O)[C@@H]3O[C@H]3O[C@H](CO)[C@@H](O)[C@H](O)[C@@H]3O)[C@@H](O)[C@H](O[C@H]3O[C@H](CO)[C@@H](O)[C@H](O)[C@@H]3O[C@H]3O[C@H](CO)[C@@H](O)[C@H](O)[C@@H]3O)[C@@H]2O)[C@@H](O)[C@H](O[C@H]2O[C@H](CO)[C@@H](O)[C@H](O)[C@@H]2O[C@H]2O[C@H](CO)[C@@H](O)[C@H](O)[C@@H]2O[C@H]2O[C@H](CO)[C@@H](O)[C@H](O)[C@@H]2O)[C@@H]1O; target = Griffithsin (Griffithsia sp., UniProt P84801); assay = isothermal titration calorimetry; setting = concentration not given, with: griffithsin; endpoint = binding stoichiometry; result = 1.42 ± 0.47
SMILES = CCCCCCCCCCNC(=O)c1ccc(C[C@H](N)C(=O)N2Cc3ccccc3C[C@H]2C(=O)N[C@@H](Cc2ccccc2)C(=O)N[C@@H](Cc2ccccc2)C(=O)O)cc1; target = OPRD1 (Homo sapiens, UniProt P41143); assay = agonist; system = HEK293 cells expressing OPRD1; endpoint = EC50; result = 0.239 nM
SMILES = CCc1cc(Cc2ccccc2)cc2c1NCCC2NC(=O)C(N)Cc1c(C)cc(O)cc1C (centres unmarked); target = Oprd1 (Rattus norvegicus, UniProt P33533); assay = GTPγS binding, agonist; system = C6 cells expressing DOR; how to read = reference: DPDPE at 10 µM; endpoint = maximal stimulation; result = 45%
SMILES = CC(C)P(=S)(NP(=[Se])(C(C)C)C(C)C)C(C)C; target = Alpha-amylase (Bacillus subtilis, UniProt P00691); assay = binding, Van't Hoff analysis; setting = pH 6.8, 298–310 K; endpoint = ΔS; result = -0.203 kJ/mol/K
SMILES = COc1cc2ccnc(Cc3ccc(O[11CH3])c(OC)c3)c2cc1OC; target = Pde10a (Rattus norvegicus, UniProt Q9QYJ6); assay = autoradiography; system = rat brain sections; setting = 9 nM, 30 min, 25 °C; endpoint = non-striatal binding; result = no binding
SMILES = CC(=O)NCC(=O)NCC(=O)N[C@@H](CCCCNP(=O)(O)O)C(=O)NCC(=O)NCC(N)=O; target = Phospholysine phosphohistidine inorganic pyrophosphate phosphatase (LHPP, Homo sapiens, UniProt Q9H008); assay = enzyme activity; setting = concentration not given, 90 min, pH 7.8, with: substrate 100 µM; endpoint = substrate hydrolysis; result = 37.9%
SMILES = CC(C)C[C@H](NC(=O)[C@H](CCC(=O)O)NC(=O)[C@H](C)NC(=O)[C@H](CCC(=O)O)NC(=O)[C@H](CCC(=O)O)NC(=O)[C@H](Cc1c[nH]cn1)NC(=O)[C@H](CCCNC(=N)N)NC(=O)[C@H](CCC(=O)O)NC(=O)[C@H](CC(N)=O)NC(=O)[C@H](CCCCN)NC(=O)[C@H](CC(C)C)NC(=O)[C@H](CCCNC(=N)N)NC(=O)[C@H](CCC(N)=O)NC(=O)[C@H](CC(C)C)NC(=O)[C@H](CCC(=O)O)NC(=O)[C@H](C)NC(=O)[C@H](CC(N)=O)NC(=O)[C@H](C)NC(=O)[C@@H](NC(=O)[C@H](CC(C)C)NC(=O)[C@H](CCCCN)NC(=O)[C@H](CCC(=O)O)NC(=O)[C@@H](NC(=O)[C@H](CO)NC(=O)CN)C(C)C)[C@@H](C)O)C(=O)N[C@@H](CCC(=O)O)C(=O)N[C@@H](CCCNC(=N)N)C(=O)N[C@@H](CC(C)C)C(=O)N[C@@H](CCCCN)C(=O)N[C@@H](CO)C(=O)N[C@@H](CCC(=O)O)C(=O)N[C@@H](Cc1ccc(O)cc1)C(=O)O; target = Plasminogen (PLG, Homo sapiens, UniProt P00747, C188G/E240D/L256Y); assay = binding, SPR; setting = pH 7.4; endpoint = koff; result = 0.0704 s⁻¹
SMILES = Nc1nc2c([C@@H]3O[C@@H]4COP(=O)(O)O[C@H]5[C@@H](O)[C@H](n6cnc7c(=O)[nH]c(N)nc76)O[C@@H]5COP(=O)(O)O[C@H]4[C@H]3O)snc2c(=O)[nH]1; target = rocR (Pseudomonas aeruginosa, UniProt Q9HX69); assay = substrate, HPLC; setting = 10 µM, with: 100 nM enzyme; endpoint = cleavage rate constant k2; result = 3.07 ± 0.25 s⁻¹
SMILES = CC(C)CCN(Cc1ccccn1)c1nc(C#N)nc(N2CCOCC2)n1; target = CPL; assay = enzyme activity, inhibitor; how to read = reference: human over Toxoplasma IC50; endpoint = selectivity ratio; result = 0.4
SMILES = C=C(C)C(=O)Oc1ccc(C(C)(C)c2ccc(OC(=O)C(=C)C)cc2)cc1; target = Androgen receptor (AR, Homo sapiens, UniProt P10275); assay = reporter gene, antagonist; setting = with: 0.1 nM R1881; endpoint = significant antiandrogenic concentration range; result = 0.6 to 20 µM
SMILES = CCN(Cc1ccccc1)C(=O)CCc1nc(CN2CCN(C(=O)Cc3ccc(OC)c(OC)c3)CC2)no1; target = SCN9A (Homo sapiens, UniProt Q15858); assay = whole-cell patch clamp; system = HEK stable; setting = 100 nM; endpoint = V1/2 of inactivation; result = -75 ± 8.05 mV
SMILES = CC[C@H](C)[C@H](NC(=O)[C@@H]1CCCN1C(=O)[C@H](Cc1c[nH]cn1)NC(=O)[C@@H](NC(=O)[C@H](Cc1ccc(O)cc1)NC(=O)[C@@H](NC(=O)[C@H](CCCNC(=N)N)NC(=O)CNC)C(C)C)[C@@H](C)CC)C(=O)O; target = AGTR1 (Homo sapiens, UniProt P30556); assay = IP1 accumulation, agonist; system = Expi293F cells; setting = 1 h, 37 °C; endpoint = Emax; result = 52 ± 3%
SMILES = NC(=O)Cc1cc(=O)oc2cc(NC(=O)[C@@H](N)CCc3ccc(O)cc3)ccc12; target = Aminopeptidase N (Neisseria meningitidis, UniProt Q9JYV4); assay = enzyme activity, substrate; setting = pH 7.5, 37 °C; endpoint = Km; result = 47.4 ± 1.6 µM
SMILES = CC[C@H](C)[C@H](NC(=O)[C@H](CC(N)=O)NC(=O)[C@H](CC(N)=O)NC(=O)[C@@H](N)CCCNC(N)=O)C(=O)N1C[C@@H](n2cc([C]34[CH]5[CH]6[CH]7[CH]3[Fe]6754389%10[CH]4[CH]3[CH]8[CH]9[CH]4%10)nn2)C[C@H]1C(=O)N[C@@H](Cc1c[nH]c2ccccc12)C(=O)N[C@@H](CO)C(N)=O (some centres unmarked); target = env (Human immunodeficiency virus type 1 group M subtype B, UniProt P35961); assay = ITC; setting = concentration not given, pH 7.4, 25 °C; endpoint = binding enthalpy; result = -14.1 ± 0.6 kcal/mol
SMILES = CC(=O)N[C@H]1C(O)O[C@H](CO)[C@@H](O[C@@H]2O[C@H](CO)[C@H](O)[C@H](O)[C@H]2O)[C@@H]1O (some centres unmarked); target = Galectin-3 (LGALS3, Homo sapiens, UniProt P17931); assay = isothermal titration calorimetry; setting = concentration not given, full-length protein; endpoint = binding stoichiometry; result = 0.94
SMILES = O=C(O)/C=C/c1cc(O)cc(O)c1; target = ACHE (Homo sapiens, UniProt P22303); assay = enzyme activity, inhibitor; setting = 125 µg/mL; endpoint = inhibition; result = 56.1 ± 1.1%

A few entries again:
SMILES = CC(=O)N[C@H](CCCNC(=N)N)C(=O)N[C@H]1CSSC[C@@H](C(N)=O)NC(=O)[C@H](Cc2c[nH]c3ccccc23)NC(=O)[C@H](CCCNC(=N)N)NC(=O)[C@@H](Cc2ccccc2)NC(=O)[C@H](Cc2c[nH]cn2)NC(=O)[C@H](CCC(=O)O)NC1=O; target = Melanocortin receptor 4 (Mus musculus, UniProt P56450); assay = agonist; system = mice; setting = intraperitoneal, 3 mg/kg; how to read = reference: saline; endpoint = plasma PYY level; result = 3 fold
SMILES = N#Cc1nc(N2CCOCC2)nc(N(Cc2ccc(F)cc2)CC2CCOCC2)n1; target = CPL; assay = enzyme activity, inhibitor; how to read = reference: human over Toxoplasma IC50; endpoint = selectivity ratio; result = 0.25
SMILES = CC(=O)N[C@@H](CC(C)C)C(=O)N[C@@H](CCC(=O)O)C(=O)N[C@@H](Cc1c[nH]cn1)C(=O)N[C@@H](CC(=O)O)C(=O)Nc1ccc2c(C)cc(=O)oc2c1; target = Caspase-9 (CASP9, Homo sapiens, UniProt P55211); assay = substrate; setting = concentration not given, full-length; endpoint = Vmax; result = 139 ± 8.11 RFU/min
